Published values of several laboratories.
Numbered parts are unrelated; each lists some results of a single study.
UniProt P42336, sequence (whole entry, unmodified, looked up): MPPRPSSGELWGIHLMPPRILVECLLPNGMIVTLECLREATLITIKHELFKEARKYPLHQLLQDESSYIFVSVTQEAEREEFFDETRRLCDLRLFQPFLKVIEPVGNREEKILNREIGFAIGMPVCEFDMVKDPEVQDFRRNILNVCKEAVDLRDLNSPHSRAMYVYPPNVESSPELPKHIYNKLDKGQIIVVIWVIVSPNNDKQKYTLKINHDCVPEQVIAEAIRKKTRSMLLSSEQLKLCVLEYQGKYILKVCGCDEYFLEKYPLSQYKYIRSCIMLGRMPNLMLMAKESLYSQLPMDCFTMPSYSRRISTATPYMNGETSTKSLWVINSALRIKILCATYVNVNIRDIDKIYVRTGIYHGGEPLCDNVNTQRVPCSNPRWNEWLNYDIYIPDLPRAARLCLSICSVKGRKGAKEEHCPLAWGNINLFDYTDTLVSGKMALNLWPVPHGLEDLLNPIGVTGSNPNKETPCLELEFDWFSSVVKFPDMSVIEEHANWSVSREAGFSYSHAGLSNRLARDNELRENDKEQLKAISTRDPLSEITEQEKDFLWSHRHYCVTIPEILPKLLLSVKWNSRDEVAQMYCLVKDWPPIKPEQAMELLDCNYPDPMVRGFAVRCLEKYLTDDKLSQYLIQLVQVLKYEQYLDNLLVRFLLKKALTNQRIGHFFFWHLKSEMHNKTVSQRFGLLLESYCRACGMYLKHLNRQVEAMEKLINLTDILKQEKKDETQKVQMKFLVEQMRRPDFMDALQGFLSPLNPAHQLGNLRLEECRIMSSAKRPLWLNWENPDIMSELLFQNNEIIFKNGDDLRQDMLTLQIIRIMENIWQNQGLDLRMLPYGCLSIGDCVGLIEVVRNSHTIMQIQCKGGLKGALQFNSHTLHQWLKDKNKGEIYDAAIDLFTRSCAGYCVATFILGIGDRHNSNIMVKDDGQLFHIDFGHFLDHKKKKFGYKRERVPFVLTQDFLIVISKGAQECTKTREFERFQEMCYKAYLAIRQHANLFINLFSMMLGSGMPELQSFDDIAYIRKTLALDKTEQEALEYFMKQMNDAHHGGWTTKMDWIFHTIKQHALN
UniProt O15530, sequence (whole entry, looked up): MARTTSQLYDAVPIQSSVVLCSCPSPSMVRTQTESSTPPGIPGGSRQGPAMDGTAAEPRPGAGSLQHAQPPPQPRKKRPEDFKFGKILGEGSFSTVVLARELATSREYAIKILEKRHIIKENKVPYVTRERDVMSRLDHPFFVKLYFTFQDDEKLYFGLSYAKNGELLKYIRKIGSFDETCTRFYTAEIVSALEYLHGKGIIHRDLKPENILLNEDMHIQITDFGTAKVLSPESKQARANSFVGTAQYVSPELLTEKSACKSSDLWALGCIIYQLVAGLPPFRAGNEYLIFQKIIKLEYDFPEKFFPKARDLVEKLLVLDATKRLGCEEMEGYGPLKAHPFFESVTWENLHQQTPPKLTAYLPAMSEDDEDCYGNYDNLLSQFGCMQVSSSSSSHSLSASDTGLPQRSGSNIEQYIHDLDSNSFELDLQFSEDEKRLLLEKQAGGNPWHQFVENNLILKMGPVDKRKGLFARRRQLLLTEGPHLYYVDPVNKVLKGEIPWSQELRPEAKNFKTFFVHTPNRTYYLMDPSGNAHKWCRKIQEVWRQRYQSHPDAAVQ
UniProt Q9NY57, sequence (whole entry, looked up): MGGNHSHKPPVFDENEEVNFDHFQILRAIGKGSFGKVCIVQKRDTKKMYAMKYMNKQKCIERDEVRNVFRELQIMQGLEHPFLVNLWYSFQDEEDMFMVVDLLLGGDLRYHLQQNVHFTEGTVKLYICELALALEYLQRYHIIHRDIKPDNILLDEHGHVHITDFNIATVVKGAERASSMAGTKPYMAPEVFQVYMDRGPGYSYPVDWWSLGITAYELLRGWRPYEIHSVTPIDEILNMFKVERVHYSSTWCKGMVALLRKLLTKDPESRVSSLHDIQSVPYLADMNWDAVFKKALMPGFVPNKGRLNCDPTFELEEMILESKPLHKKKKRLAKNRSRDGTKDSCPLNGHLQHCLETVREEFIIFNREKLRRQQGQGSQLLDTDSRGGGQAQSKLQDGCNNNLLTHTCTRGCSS
UniProt P23458, sequence (whole entry, looked up): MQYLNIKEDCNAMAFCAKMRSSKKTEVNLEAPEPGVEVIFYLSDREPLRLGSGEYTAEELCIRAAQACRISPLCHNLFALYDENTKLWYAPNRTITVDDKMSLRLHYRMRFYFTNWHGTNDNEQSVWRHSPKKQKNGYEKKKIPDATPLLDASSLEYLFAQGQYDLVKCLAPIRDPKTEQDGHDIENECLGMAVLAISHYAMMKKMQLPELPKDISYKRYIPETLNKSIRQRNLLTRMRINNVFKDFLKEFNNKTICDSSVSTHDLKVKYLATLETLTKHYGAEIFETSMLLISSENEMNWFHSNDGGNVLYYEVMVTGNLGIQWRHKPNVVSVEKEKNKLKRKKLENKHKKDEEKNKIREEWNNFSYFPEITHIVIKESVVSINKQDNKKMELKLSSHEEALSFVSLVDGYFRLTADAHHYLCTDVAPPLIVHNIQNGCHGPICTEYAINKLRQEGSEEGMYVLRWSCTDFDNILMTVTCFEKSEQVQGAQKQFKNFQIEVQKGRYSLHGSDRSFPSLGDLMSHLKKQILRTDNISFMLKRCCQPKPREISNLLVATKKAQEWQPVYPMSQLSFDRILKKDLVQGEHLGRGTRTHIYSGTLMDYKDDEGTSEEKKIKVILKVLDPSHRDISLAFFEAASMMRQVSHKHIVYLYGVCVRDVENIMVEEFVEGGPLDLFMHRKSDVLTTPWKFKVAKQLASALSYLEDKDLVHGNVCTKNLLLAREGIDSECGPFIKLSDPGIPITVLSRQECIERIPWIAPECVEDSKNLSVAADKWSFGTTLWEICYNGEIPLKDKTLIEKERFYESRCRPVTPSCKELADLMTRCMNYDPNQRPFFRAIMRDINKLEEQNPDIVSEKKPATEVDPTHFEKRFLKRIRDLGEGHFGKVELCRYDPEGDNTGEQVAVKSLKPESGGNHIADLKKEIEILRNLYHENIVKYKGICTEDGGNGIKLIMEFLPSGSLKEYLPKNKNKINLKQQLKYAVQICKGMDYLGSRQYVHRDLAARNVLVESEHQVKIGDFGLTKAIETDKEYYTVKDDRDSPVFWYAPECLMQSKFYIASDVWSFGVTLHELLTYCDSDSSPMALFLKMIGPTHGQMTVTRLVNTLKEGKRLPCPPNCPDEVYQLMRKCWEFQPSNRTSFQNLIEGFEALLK
UniProt Q86Z02, sequence (whole entry, looked up): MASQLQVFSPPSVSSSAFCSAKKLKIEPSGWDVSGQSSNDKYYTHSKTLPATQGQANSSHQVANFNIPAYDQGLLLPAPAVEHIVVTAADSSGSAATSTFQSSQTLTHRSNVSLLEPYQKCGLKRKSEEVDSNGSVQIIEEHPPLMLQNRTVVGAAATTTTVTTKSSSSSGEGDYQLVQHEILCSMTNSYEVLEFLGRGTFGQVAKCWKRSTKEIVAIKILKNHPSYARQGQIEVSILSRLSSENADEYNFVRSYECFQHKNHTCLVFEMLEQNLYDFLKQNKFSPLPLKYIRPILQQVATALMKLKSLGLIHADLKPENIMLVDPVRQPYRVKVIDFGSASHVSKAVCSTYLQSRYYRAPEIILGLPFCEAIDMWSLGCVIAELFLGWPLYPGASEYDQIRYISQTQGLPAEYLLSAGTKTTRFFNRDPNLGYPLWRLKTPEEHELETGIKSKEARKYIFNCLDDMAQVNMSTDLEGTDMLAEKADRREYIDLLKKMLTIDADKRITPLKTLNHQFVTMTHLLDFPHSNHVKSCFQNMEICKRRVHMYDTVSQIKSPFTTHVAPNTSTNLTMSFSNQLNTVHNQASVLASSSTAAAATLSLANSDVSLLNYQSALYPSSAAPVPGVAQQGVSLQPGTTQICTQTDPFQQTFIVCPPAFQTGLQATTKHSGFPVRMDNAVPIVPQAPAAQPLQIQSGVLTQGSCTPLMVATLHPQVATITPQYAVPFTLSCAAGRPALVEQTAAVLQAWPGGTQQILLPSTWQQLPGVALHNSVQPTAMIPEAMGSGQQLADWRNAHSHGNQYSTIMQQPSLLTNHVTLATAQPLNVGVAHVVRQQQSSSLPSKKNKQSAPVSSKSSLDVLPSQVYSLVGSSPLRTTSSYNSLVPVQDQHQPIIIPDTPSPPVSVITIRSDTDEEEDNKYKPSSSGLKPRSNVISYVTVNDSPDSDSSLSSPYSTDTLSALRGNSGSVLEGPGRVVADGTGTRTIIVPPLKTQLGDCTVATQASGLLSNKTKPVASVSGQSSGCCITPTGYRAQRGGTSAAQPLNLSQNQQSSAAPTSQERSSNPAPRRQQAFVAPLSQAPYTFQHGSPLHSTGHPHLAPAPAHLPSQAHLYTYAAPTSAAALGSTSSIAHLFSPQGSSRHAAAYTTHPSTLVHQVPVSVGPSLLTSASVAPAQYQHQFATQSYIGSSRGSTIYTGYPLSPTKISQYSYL

Series 1 — host: human; medium: microsomes or S9; tested at: 2 µM; time: 0.5 h; quantity: remaining compound
CCN(CC)CCNc1nc(C)cc(COC)c1C(N)=O: 35.6%
CCN(CC)/C(=N\S(=O)(=O)c1ccccc1C)c1ccccc1: 6.62%
Clc1ccc2nc(N3CCc4ccccc4C3)sc2c1: 43.5%
O=C1COc2ccc(-c3cc4ccccn4c3)cc2N1: 0%
COc1cc(=O)[nH]cc1C(=O)N1CCOC(c2nc(C)cs2)C1 (stereo not shown): > 99%
COc1cc2c(Nc3cc(Cl)cc(Cl)c3)ncnc2cc1O: 84.5%
O=S1(=O)CCC(S(=O)(=O)N2CCN(c3ccccc3)CC2)C1 (stereo not shown): 94.7%
O=C(COc1ccccc1F)NC[C@H]1CC[C@H](c2ncc(Cl)cc2-c2ccncc2)CC1: 4.92%
Cc1ccc(C)c(-n2nnnc2SCc2nc3cc(C(F)(F)F)ccc3c(=O)[nH]2)c1: 65.7%
CCC(CC)C(=O)N1CCN(c2cc(-n3nc(C)cc3C)ncn2)CC1: 87.6%
Cc1cccc(-c2noc(-c3cn(CC(=O)Nc4cccc(C)c4C)c4nc(C)ccc4c3=O)n2)c1: 58.4%

Series 2 — Structure (SMILES): COc1ccc(-c2cnc3c(-c4ccsc4)cnn3c2)cc1; observed: enzyme activity; mode: inhibitor; tested at: 0.5 µM; relative to: control; quantity: remaining activity
STK17A (Homo sapiens, UniProt Q9UEE5): 91.6%
TSSK2 (Homo sapiens, UniProt Q96PF2): 99%
CAMK2B (Homo sapiens, UniProt Q13554): 88.7%
DYRK3 (Homo sapiens, UniProt O43781): 89.9%
STK16 (Homo sapiens, UniProt O75716): 66.9%
MAPKAPK3 (Homo sapiens, UniProt Q16644): 97.5%
EPHB4 (Homo sapiens, UniProt P54760): 87.5%
Cyclin-dependent kinase 1, with cyclin B (CDK1, Homo sapiens, UniProt P06493): 87.2%
PDPK1 (Homo sapiens, UniProt O15530): 96%

Series 3 — observed: enzyme activity; mode: inhibitor; tested at: 10 µM; quantity: inhibition
Target: Calcium/calmodulin-dependent protein kinase type II subunit alpha (CAMK2A, Homo sapiens, UniProt Q9UQM7)
UniProt Q9UQM7, sequence (whole entry, looked up): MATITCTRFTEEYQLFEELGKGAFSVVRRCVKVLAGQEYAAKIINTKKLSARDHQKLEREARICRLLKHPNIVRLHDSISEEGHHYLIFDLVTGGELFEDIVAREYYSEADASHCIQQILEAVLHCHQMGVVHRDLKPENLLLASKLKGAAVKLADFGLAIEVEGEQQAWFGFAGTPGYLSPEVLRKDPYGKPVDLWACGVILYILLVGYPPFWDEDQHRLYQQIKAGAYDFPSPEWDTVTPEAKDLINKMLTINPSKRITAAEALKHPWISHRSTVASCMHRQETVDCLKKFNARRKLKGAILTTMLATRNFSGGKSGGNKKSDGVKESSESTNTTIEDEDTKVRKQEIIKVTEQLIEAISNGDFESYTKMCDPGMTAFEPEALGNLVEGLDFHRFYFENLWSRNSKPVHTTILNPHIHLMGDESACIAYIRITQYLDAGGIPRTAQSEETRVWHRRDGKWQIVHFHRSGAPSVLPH
C[C@@H]1O[C@@H](OC[C@H]2O[C@@H](Oc3c(-c4ccc(O)cc4)oc4cc(O)cc(O)c4c3=O)[C@H](O)[C@@H](O)[C@H]2O)[C@H](O)[C@H](O)[C@H]1O: 24%
COc1cc(/C=C/C(=O)CC(=O)CCc2ccc(O)c(OC)c2)ccc1O: 6%
CCCCCN(C)CCC(O)(P(=O)(O)O)P(=O)(O)O: -11%
C/C=C(/C)C(=O)O[C@H]1[C@@H](OC(=O)CC(C)C)c2c(ccc3ccc(=O)oc23)OC1(C)C: -23%
COc1cc(NCc2ccc3nc(N)nc(N)c3c2C)cc(OC)c1OC: -10%
COc1ccc(/C=C/C(=O)/C=C(O)/C=C/c2ccc(OC)c(OC)c2)cc1OC: 19%
COC(=O)c1ccc(O)cc1: 14%
CCCCC/C=C\C/C=C\CCCCCCCCO: -25%

Series 4 — observed: cell-free assay; technique: competition with immobilised ligand; tested at: 1 µM; quantity: remaining binding
Structure (SMILES): CCCOc1ccc([C@@H]2[C@@H](C(=O)O)[C@H](c3ccc4c(c3)OCO4)CN2CC(=O)Nc2c(CC)cccc2CC)cc1
STK32B (Homo sapiens, UniProt Q9NY57): 100%
Tyrosine-protein kinase JAK1, JH1 (JAK1, Homo sapiens, UniProt P23458): 100%
MAP3K4 (Homo sapiens, UniProt Q9Y6R4): 99%
PIK3CA (Homo sapiens, UniProt P42336, H1047L): 83%
EGFR (Homo sapiens, UniProt P00533, G719C): 98%
NUAK1 (Homo sapiens, UniProt O60285): 99%
PIK3CA (Homo sapiens, UniProt P42336, M1043I): 91%
PIK3CA (Homo sapiens, UniProt P42336, I800L): 71%
MAP4K2 (Homo sapiens, UniProt Q12851): 98%
Ribosomal protein S6 kinase alpha-1, C-terminal kinase domain (RPS6KA1, Homo sapiens, UniProt Q15418): 77%
HIPK1 (Homo sapiens, UniProt Q86Z02): 79%
RET (Homo sapiens, UniProt P07949, V804M): 94%
BMPR2 (Homo sapiens, UniProt Q13873): 69%
KIT (Homo sapiens, UniProt P10721, V559D): 93%
FLT3 (Homo sapiens, UniProt P36888): 100%

Excerpt of the above (series 2):
STK16 (Homo sapiens, UniProt O75716): 66.9%
MAPKAPK3 (Homo sapiens, UniProt Q16644): 97.5%
EPHB4 (Homo sapiens, UniProt P54760): 87.5%
Cyclin-dependent kinase 1, with cyclin B (CDK1, Homo sapiens, UniProt P06493): 87.2%
